{"data": "Measurements pooled from the literature", "target": "D(1A) dopamine receptor (DRD1, Homo sapiens, UniProt P21728)", "note": "Lines come from different studies, so protocols differ.", "chain of UniProt P21728 (whole entry, looked up)": "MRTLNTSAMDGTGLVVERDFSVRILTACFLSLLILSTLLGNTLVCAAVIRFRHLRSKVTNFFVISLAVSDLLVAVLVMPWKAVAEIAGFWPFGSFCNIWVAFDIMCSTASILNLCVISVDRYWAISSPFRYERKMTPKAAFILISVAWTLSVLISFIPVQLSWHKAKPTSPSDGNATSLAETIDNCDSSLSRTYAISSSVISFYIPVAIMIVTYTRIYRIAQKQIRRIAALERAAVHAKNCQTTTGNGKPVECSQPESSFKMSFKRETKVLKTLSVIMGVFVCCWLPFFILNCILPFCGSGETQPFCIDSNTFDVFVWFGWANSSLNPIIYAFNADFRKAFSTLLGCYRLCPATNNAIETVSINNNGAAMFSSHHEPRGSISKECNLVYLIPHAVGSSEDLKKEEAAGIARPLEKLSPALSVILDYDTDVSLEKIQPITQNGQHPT"}
{"Structure (SMILES)": "C[C@@H]1COCCN1c1nc(NCc2cccnc2C(F)(F)F)c2cccnc2n1", "test": "binding", "conditions": "CEREP panel", "quantity": "IC50", "result": "> 100 µM"}
{"Structure (SMILES)": "N[C@H](C(=O)N1CCCC1)C1CCN(c2nccc3c(-c4ncc(Cl)cc4Cl)cccc23)CC1", "test": "functional response, agonist", "conditions": "10 µM", "quantity": "response", "result": "-2%"}
{"Structure (SMILES)": "CCO[C@H]1[C@H](O)[C@@H](N)[C@@H](O[C@H]2[C@H](O[C@@H]3O[C@H](CO)[C@@H](O[C@H]4O[C@@H](CN)[C@@H](O)[C@H](O)[C@H]4N)[C@H]3O)[C@@H](O)[C@H](N)C[C@@H]2N)O[C@@H]1CO", "test": "radioligand binding", "conditions": "10 µM, 1% DMSO", "quantity": "specific binding", "result": "-10%"}
{"Structure (SMILES)": "Cc1sc2c(c1C)C(c1ccc(Cl)cc1)=NC(CC(=O)OC(C)(C)C)c1nnc(C)n1-2 (stereo not drawn)", "test": "ligand displacement, radioligand", "conditions": "1 µM", "quantity": "inhibition", "result": "-2%"}
{"Structure (SMILES)": "Cc1cc(-c2ccc3ccccc3c2)nnc1NCCN1CCN(C)CC1", "test": "antagonist", "conditions": "concentration not given", "quantity": "antagonist activity", "result": "negative"}
{"Structure (SMILES)": "C/C(=N\\OCCCN1CCCCC1)c1ccc(C(F)(F)F)cc1", "test": "antagonist, cAMP", "conditions": "10 µM", "quantity": "inhibition", "result": "15.9%"}
{"Structure (SMILES)": "CCOC(=O)[C@](CC)(CCCSCCOCCOCCNC(=O)c1ccc(-c2c3ccc(=N)c(S(=O)(=O)O)c-3oc3c(S(=O)(=O)O)c(N)ccc23)c(C(=O)O)c1)NC(=O)c1ccc(C2CC2)c(Cc2ccc(F)cc2)n1", "test": "ligand displacement, radioligand", "conditions": "10 µM", "quantity": "inhibition", "result": "10%"}
{"Structure (SMILES)": "Cc1cc(Nc2nc(C[C@@]3(C(=O)O)CCN(Cc4cccc(Cl)c4F)[C@H](C)C3)cc(C)c2F)[nH]n1", "test": "agonist", "conditions": "10 µM", "quantity": "activation", "result": "1.35%"}
{"Structure (SMILES)": "CN[C@@H]1[C@H](O)[C@H](NC)[C@H]2O[C@]3(O)[C@H](O[C@@H]2[C@H]1O)O[C@H](C)C[C@H]3NC(=O)Cc1cc(Cl)ccn1", "test": "ligand displacement, radioligand", "conditions": "10 µM", "quantity": "inhibition", "result": "6%"}
{"Structure (SMILES)": "CCc1nnc(-c2c(OC)cc(-c3cnc4cc(-c5cnn(C)c5)ccn34)cc2OC)o1", "test": "antagonist radioligand, radioligand binding", "conditions": "10 µM, SafetyScreen44 D1 mean", "how to read": "lower = stronger displacement", "quantity": "remaining binding", "result": "93.5%"}
{"Structure (SMILES)": "O=C1c2ccccc2CCCN1CCCCN1CCN(c2cccc(Cl)c2Cl)CC1", "test": "radioligand binding", "conditions": "concentration not given, together with: [3H]SCH23390", "quantity": "inhibition", "result": "89.8%"}
{"Structure (SMILES)": "Cc1ccc2c(n1)c(-c1cccc(S(C)(=O)=O)c1)c(C)n2C/C(F)=C/CN", "test": "ligand displacement, radioligand", "conditions": "10 µM", "quantity": "inhibition", "result": "6%"}
{"note": "Excerpt of the above:"}
{"Structure (SMILES)": "C[C@@H]1COCCN1c1nc(NCc2cccnc2C(F)(F)F)c2cccnc2n1", "test": "binding", "conditions": "CEREP panel", "quantity": "IC50", "result": "> 100 µM"}
